Published values from different studies.
Compare with care: the assays were run in different laboratories. Several values in a cell are separate wells, animals, samples, runs or records. ± marks the error that the study gave.

COc1cc2nccc(Oc3ccc(NC(=O)c4cc5c(n(-c6ccccc6)c4=O)CCCC5=O)nc3)c2cc1OC  patients with drug-related serious TEAEs (human, relapsed/refractory AML; oral, dose not given, all dose groups combined): 5%
COc1cccc(CC(C)NS(=O)(=O)c2c(C)oc(C)c2C(=O)O)c1 (stereo not shown)  DLS scattered light intensity (colloidal aggregate formation, dynamic light scattering; 50 mM potassium phosphate buffer; 200 µM, pH 7.0, 1% DMSO; higher = more aggregation): 558000 counts/s
CC[C@H](C)[C@H](NC(=O)[C@H](Cc1ccccc1)NC(=O)[C@H](CCC(=O)O)NC(=O)[C@H](CCCCNC(=O)COCCOCCNC(=O)COCCOCCNC(=O)CC[C@H](NC(=O)CCCCCCCCCCCCCCCCC(=O)O)C(=O)O)NC(=O)[C@H](C)NC(=O)[C@H](C)NC(=O)[C@H](CCC(N)=O)NC(=O)CNC(=O)[C@H](CCC(=O)O)NC(=O)[C@H](CC(C)C)NC(=O)[C@H](Cc1ccc(O)cc1)NC(=O)[C@H](CO)NC(=O)[C@H](CO)NC(=O)[C@@H](NC(=O)[C@H](CC(=O)O)NC(=O)[C@H](CO)NC(=O)[C@@H](NC(=O)[C@H](Cc1ccccc1)NC(=O)[C@@H](NC(=O)CNC(=O)[C@H](CCC(=O)O)NC(=O)C(C)(C)NC(=O)[C@@H](N)Cc1cnc[nH]1)[C@@H](C)O)[C@@H](C)O)C(C)C)C(=O)N[C@@H](C)C(=O)N[C@@H](Cc1c[nH]c2ccccc12)C(=O)N[C@@H](CC(C)C)C(=O)N[C@H](C(=O)N[C@@H](CCCNC(=N)N)C(=O)NCC(=O)N[C@@H](CCCNC(=N)N)C(=O)NCC(=O)O)C(C)C  placebo-subtracted change in QTcI (QT interval corrected for heart rate, 12-lead Holter ECG; healthy human subjects; subcutaneous, 1.5 mg once weekly, 27 h post-dose, steady state; reference: placebo, time-matched baseline): -5.6 ms
C=CC(=O)NC1CCN(c2ncc3ncnc(Nc4ccc(Oc5ccc6c(c5)ncn6C)c(C)c4)c3n2)CC1  participants with back pain TEAE (healthy male humans; oral, 240 mg, grade 2): 6.3%
Nc1ccn([C@@H]2O[C@H](CO)[C@@H](O)C2(F)F)c(=O)n1  Tmax, median (measured: dFdU; human, plasma; intravenous, 800 mg/m^2, added: after paricalcitol): 1 h
C[C@H]1[C@H]2N(C(=O)CN(C)N2C(=O)NCc2ccccc2)[C@@H](Cc2ccc(OP(=O)(O)O)cc2)C(=O)N1Cc1cccc2cccnc12  AUC(0-24 h) (patients, plasma; intravenous infusion, 280 mg/m2 over 4 h, mean): 7260 ng·h/mL
C[C@H](CCC(=O)NCC(=O)O)[C@H]1CC[C@H]2[C@@H]3[C@H](O)C[C@@H]4C[C@H](O)CC[C@]4(C)[C@H]3C[C@H](O)[C@]12C  daily mean concentration (human, plasma; endogenous baseline diurnal): 64.2 ± 9.5 nM
c1ccc(-c2nc(N3CCC(c4ccccn4)C3)c3ccccc3n2)nc1 (stereo not shown)  blood concentration (female Balb/c mice, blood; intravenous, 2 mg/kg, 0.083 h, mean, added: 1-aminobenzotriazole co-dosed): 2470 ng/mL
O=C(O)CC(CNS(=O)(=O)c1cccc(Cl)c1O)c1ccc(Br)s1 (stereo not shown)  DLS scattered light intensity (colloidal aggregate formation, dynamic light scattering; 50 mM potassium phosphate buffer; 200 µM, pH 7.0, 1% DMSO; higher = more aggregation): 586000 counts/s
C[C@@]1(c2cc(NC(=O)c3ccc(C#N)cn3)ccc2F)C=CSC(N)=N1  dose-normalised AUC(0-t) (young male humans, plasma; oral, 1 mg, single dose): 61.6 ng·h/mL
Cc1ccc([C@@H]2O[C@H](CO)[C@@H](O)[C@H](O)[C@H]2O)cc1Cc1ccc(-c2ccc(F)cc2)s1  urinary calcium excretion change (Japanese type 2 diabetes patients; 400 mg, day 16, 24 h urine collection; reference: baseline): -19.9 mg
COC(=O)c1ccccc1-c1c2ccc(=O)cc-2oc2c1ccc1cccc(N(C)C)c12  extinction coefficient (aqueous HCl 10% DMSO; pH 1.9): 10100
CCCOc1ccc(-c2ccc(C#N)cc2)cc1  concentration (measured: compound; human pregnant women, male fetuses, maternal serum; dose not given, paired maternal-cord samples, mean): 1.14 ng/mL
CCn1cc(C(=O)N2CCOCC2)c(=O)c2cc(NC3Cc4ccccc4C3)cnc21  half-life (human, fed; oral suspension, 1200 mg single dose, arithmetic mean): 8.2 h
Cc1ccc(Sc2ccccc2N2CCNCC2)c(C)c1  participants with TEAE (measured: Somnolence; healthy adult men; oral, 10 mg single dose): 0%
CC(C)[C@H](N)C(=O)NCCCS(=O)(=O)O  AUC(0-12) (human both sexes, plasma; oral, 265 mg once daily, day 1, fed tablet): 10300 ng·h/mL
C[C@@H](O)[C@H]1C(=O)N2C(C(=O)O)=C(S[C@@H]3CN[C@H](C(=O)N(C)C)C3)[C@H](C)[C@H]12  deviation from nominal concentration (human whole blood; concentration not given, 48 h, 4 °C): -5.1%
[18F]c1ccc(-c2ccc3c(c2)[nH]c2ccncc23)cn1  SUV (ex vivo biodistribution; B6SJL mouse, normal, pancreas; intravenous, 30 min): 1.38 ± 0.515
O=C(O)CCC(=O)O.[2H]C([2H])([2H])Oc1cc(C)c2[nH]ccc2c1CN1CC[C@@H](C2CC2)C[C@H]1c1ccc(C(=O)O)cc1  TEAE T wave abnormality (ECG; healthy Chinese subjects; oral, 125 mg twice daily, multiple ascending dose): 0%
CNC(=O)c1cc(Oc2ccc(NC(=O)Nc3cc(C(C)(C)C)nn3-c3ccc4ncccc4c3)c(F)c2)ccn1  patients with any AE of special interest (human; oral, dose not given, cycles 1 and 2, Low AUC(0-4 h) subgroup): 40%
Cn1cc(Nc2nccc(-c3ccc4c(c3)CN(C3COC3)CC[C@H]4NC(=O)c3cn(C(C)(C)C)nn3)n2)cn1  plasma cell count change (human, whole blood; 300 mg twice daily, day 14; reference: pre-dose baseline): 96.9%
Nc1ncnc2c1ncn2[C@H]1C[C@@H]2OP(=O)(O)OC[C@H]3O[C@@H](n4cnc5c(N)ncnc54)C[C@@H]3OP(=O)(O)OC[C@H]2O1  BUN (non-tumor-bearing mice, serum; intravenous, 1 mg/kg, toxicity study): 8.77 ± 0.74 mmol/L
O=C(O)c1cccc2ccccc12  HC50 (haemolysis; sheep erythrocytes; 1 h, pH 7.5): > 128 µg/mL
C[C@@H]1OC(=O)[C@H](Cc2ccccc2)[C@H]1O  Freundlich coefficient KF (soil adsorption; clay soil; pH 7.6, organic carbon 1.7 %): 3.71 mL/g
CNC(=O)c1ccc(-c2cnc3ncc(Cc4ccc5ncccc5c4)n3n2)cc1F  adverse event incidence (phase 1 clinical trial, measured: blood alkaline phosphatase increased; all expansion cohorts; oral, 600 mg twice daily, grade 3 or 4): 0%
O=C1CC[C@H](N2Cc3cc(N4CCN(CC5CCN(c6ccc([C@@H]7c8ccc(O)cc8CC[C@@H]7c7ccccc7)cc6)CC5)CC4)ccc3C2=O)C(=O)N1  participants with TEAE dry throat (human; oral, 200 mg, added: dabigatran etexilate 75 mg): 0%
Cc1c(-c2ccc(N3CCc4cccc(C(=O)Nc5nc6ccccc6s5)c4C3)nc2C(=O)O)cnn1CC12CC3(C)CC(C)(C1)CC(OCCNCC[C@H](O)CO)(C3)C2  mean arterial pressure change (beagle dog, anaesthetised; intravenous infusion, 0.1 mg/kg/min, 105 min; reference: baseline): -5 mmHg
Cc1cc(NC2CCN(C(=O)OC3CCN(C(=O)/C=C/CN(C)C)C3)CC2)n2ncc(C(C)C)c2n1 (stereo not shown)  patients with TEAE (CTCAE v4.0, measured: Nausea; patients with advanced solid tumours; oral, dose not given, TIW, grade 3 or higher): 0%
Cc1cc(N2CCc3c(c(C)nn3CC34CCC(NC(=O)[C@@H]5COCCN5)(CC3)CC4)C2)c2cnn(C)c2n1  blood concentration (LC-MS/MS; 129/Sv mice; oral, 1.5 mg/kg, 3 h): 26 ± 27 nM
CC1CC1(C(=O)O)C(=O)NCc1cc(Cl)c2c(c1)OCCCO2 (stereo not shown)  DLS scattered light intensity (colloidal aggregate formation, dynamic light scattering; 50 mM potassium phosphate buffer; 200 µM, pH 7.0, 1% DMSO; higher = more aggregation): 713000 counts/s
O=C(N[C@@H](CSCc1ccc([N+](=O)[O-])cc1)C(=O)NO)c1ccccc1  blood glucose level (ICR mice, male; oral, 200 mg/kg, 28 days, subacute toxicity): increased
CCCCNC(=O)NS(=O)(=O)c1cccs1  HC50 (haemolysis; sheep erythrocytes; 1 h, pH 7.5): > 128 µg/mL
CC[C@@H]([C@H](C)O)n1ncn(-c2ccc(N3CCN(c4ccc(OC[C@@H]5CO[C@@](Cn6cncn6)(c6ccc(F)cc6F)C5)cc4)CC3)cc2)c1=O  stability relative error (rat plasma; 1600 ng/mL, three freeze-thaw cycles; reference: nominal concentration): -10.3%
COc1cc(C(=O)NC2CCN(C)CC2)c(F)cc1Nc1ncc(C(F)(F)F)c(Oc2cccc3c2C(=O)N(C)C3)n1  dose-normalised Cmax (human patients, plasma; oral, 10 mg single dose, geometric mean): 4.48 nmol/L per mg
Cc1ccc(C(=O)N(CCCN)C(c2nc3snc(C)c3c(=O)n2Cc2ccccc2)C(C)C)cc1 (stereo not shown)  plasma concentration at 24 h (human patients, plasma; intravenous, 16 mg/day, day 3 of induction course, geometric mean): 23.4 ng/mL
CC#CC(=O)N1CC[C@@H](n2c(=O)n(-c3ccc(Oc4ccccc4)cc3)c3c(N)ncnc32)C1  Tmax, median (human, fasting, plasma; oral, 320 mg once daily, cycle 1 day 1): 2 h
Cc1nc(-c2ccc(OCC(C)C)c(C#N)c2)sc1C(=O)O  body weight (KM mouse, chronic hyperuricaemia model; dose not given, day 9): 35 g and 29.2 g and 29.6 g and 28.4 g and 31.6 g and 32.8 g
CC(C)C[C@H](NC(=O)[C@@H](Cc1c[nH]c2ccccc12)NC(=O)[C@H](Cc1ccc(O)cc1)NC(=O)[C@H](CO)NC(=O)[C@H](Cc1c[nH]c2ccccc12)NC(=O)[C@H](Cc1c[nH]cn1)NC(=O)[C@@H]1CCC(=O)N1)C(=O)N[C@@H](CCCNC(=N)N)C(=O)N1CCC[C@H]1C(=O)NCC(N)=O  patients, drug-related laboratory TEAEs (Chinese CPP children, boys; intramuscular, 22.5 mg, 12 months, day 1, month 6): 25%
O=C(O)CC[C@H](NC(=O)N[C@@H](CCCCNC(=O)[C@H](Cc1ccc2ccccc2c1)NC(=O)[C@H]1CC[C@H](CNC(=O)CN2CCN(CC(=O)O)CCN(CC(=O)O)CCN(CC(=O)O)CC2)CC1)C(=O)O)C(=O)O  tumour-to-tissue ratio (male BALB/c nude mice, LS174T-PSMA xenografts, prostate; intravenous, 0.3 nmol, 2 h, radiolabelled (111In or 99mTc); reference: tumour over prostate): 140 ± 95.5
C=CCN1CC(=O)N2[C@@H](Cc3ccc(O)cc3F)C(=O)N(Cc3cccc(N4CC(N5CCN(CC)CC5)C4)n3)C[C@@H]2N1C(=O)NCc1ccccc1  treatment-related adverse events (measured: Vomiting; advanced solid tumour patients; all doses, expansion part, any grade): 73.7%
Cc1cc(C)c(CNC(=O)c2cc(Cl)c3c(c2C)O[C@@](C)([C@H]2CC[C@H](N(C)C)CC2)O3)c(=O)[nH]1  urinary excretion (radiochromatography; human, urine; oral, 200 mg; reference: dose): 10.6% and 10% and 6.9% and 10.9%
COc1cc(Nc2ncc3c(n2)-c2ccc(Cl)cc2C(c2c(F)cccc2OC)=NC3)ccc1C(=O)O  patients with acneiform rash (cancer patients; oral, dose not given, all grades any attribution, added: pembrolizumab): 13%
N#Cc1ccc2c(c1)[C@H]1CCCN(C(=O)c3ccc4[nH]cnc4c3)[C@H]1C2  SHBG level (human females; 40 mg, day 7): 32.2 nmol/L
Cc1cc(Nc2ccc(S(F)(F)(F)(F)F)cc2)n2nc(C(C)(F)F)nc2n1  adverse event Diarrhoea (Plasmodium falciparum malaria patients; oral, 400 mg): 23.1%
C[C@@H](Oc1ccc(S(C)(=O)=O)cc1C(=O)N1C[C@@H]2C[C@]2(c2cc(C(F)(F)F)on2)C1)C(F)(F)F  fraction excreted in urine at steady state (young healthy humans, urine; oral, 75 mg once daily, 0 to 24 h, multiple dosing): 3.9%
O=C(Nc1nc2cccc(-c3ccc(CN4CCS(=O)(=O)CC4)cc3)n2n1)C1CC1  treatment-emergent adverse events (measured: joint swelling; human rheumatoid arthritis patients; oral, 150 mg once daily, 4 weeks, regardless of relatedness): 0%
CCc1cc(C(=O)NC)c2nccc(N3CCc4c(cc(Cn5ccnc5)cc4-c4cn(C)nc4C(F)(F)F)C3=O)c2c1  change in clinical chemistry or haematology parameter (measured: Eos; Sprague Dawley rat; oral, 50 mg/kg once daily, 7 days; reference: vehicle): -20.6%
C[C@@H](N)C1CCN(S(=O)(=O)c2cccc3cnccc23)CC1  CL/F (healthy volunteers, fasted, plasma; oral, 25 mg): 7420 L/h
CC(C)OCc1ccccc1NS(=O)(=O)c1cccc(Cl)c1O  DLS scattered light intensity (colloidal aggregate formation, dynamic light scattering; 50 mM potassium phosphate buffer; 200 µM, pH 7.0, 1% DMSO; higher = more aggregation): 1.03e+06 counts/s
Cc1cc(-c2nccc3c2ccn3CC(=O)Nc2ccc(-c3cnccn3)cn2)ccn1  subjects with any serious TEAE (human; SAD part, single 20 mg dose): 0%
CC(=O)N(C)[C@H]1CCN(C(=O)c2cnc3c(c2)C[C@](C)(c2ccc(F)cc2)N3)C1  severe adverse events (healthy male subjects, multiple rising dose; oral, 15 mg once daily): 0%
CNC(=O)c1cc(Oc2ccc(NC(=O)N(c3ccc(Cl)c(C(F)(F)F)c3)[C@@H]3O[C@H](C(=O)O)[C@@H](O)[C@H](O)[C@H]3O)cc2)ccn1  AUC(0-7.5 h) (mouse, Oatp1b2 knockout, plasma; oral, 10 mg/kg, geometric mean, added: rifampin 20 mg/kg iv): 53900 ng·h/mL
Cc1cc(-c2nnc(N)nc2-c2ccc(F)cc2)cc(Cl)n1  patients with treatment-related AE (human, IO-naive other solid tumours; oral, 100 mg once daily, phase Ia/Ib, any grade): 94.7%
Cn1ncc(S(=O)(=O)NC2(c3ccc(Cl)cc3F)CCCCC2)c1C(=O)O  DLS scattered light intensity (colloidal aggregate formation, dynamic light scattering; 50 mM potassium phosphate buffer; 200 µM, pH 7.0, 1% DMSO; higher = more aggregation): 1.3e+06 counts/s
CNC(=O)c1cc(Oc2ccc(NC(=O)Nc3ccc(Cl)c(C(F)(F)F)c3)c(F)c2)cc[n+]1[O-]  metabolite to parent AUC ratio (Oatp1b2 knockout mice, plasma; oral, molecular weight corrected, added: regorafenib single dose): 12%
